Published values pooled from the literature.
Protocols differ between the studies behind these lines. ± gives the spread as reported.

c1ccc(CN2CCN(c3nc(-c4ccccn4)nc4ccccc34)CC2)cc1 gave a kinetic solubility of 85 µg/mL (Japanese Pharmacopoeia disintegration test solution 2; pH 6.8).
With COc1ccc(C(=O)N2CCCCC2)cc1 the kinetic solubility was 343 µM (PBS; 2 h, pH 7.4, 25 °C, 2% DMSO).
Cc1ccn2c(NC3CCCC3)c(-c3ccc(N(C)C)cc3)nc2c1 gave a kinetic solubility of 66.9 µg/mL (shake flask HPLC-UV; sodium phosphate buffer; 24 h, pH 2.0, 2% DMSO).
The kinetic solubility of CCn1ncc2c(N3CCC(c4ccccn4)C3)nc(-c3ccccn3)nc21 (centres unmarked) is reported as 76 µg/mL (Japanese Pharmacopoeia disintegration test solution 2; pH 6.8).
With O=C(c1ccc(Nc2nccc(-c3cc4ccccc4s3)n2)cc1)N1CCC(N2CCCC2)CC1 the kinetic solubility was 30 µg/mL (PBS; pH 7.4).
With Cc1cccc(NC2=NC(=O)/C(=C/C=C/c3ccco3)S2)c1C the kinetic solubility was 39.8 µM (PBS; 24 h, pH 7.4, 21 °C, 2.0% DMSO).
COCCOCc1ccc(-c2cc3onc(-c4ccccc4)c3c(=O)n2C)cc1 has a kinetic solubility of 44.5 ± 0.2 µM (aqueous buffer; 90 min, pH 7.4, 25 °C, 0.1% DMSO).
For COc1cc2[nH]c(C)c(-c3ccc(C=O)cc3)c(=O)c2cc1Cl, the kinetic solubility was less than 2 µM (pH 7.4).
The kinetic solubility of O=[N+]([O-])c1cc(Cc2ccccc2)cc(/C=N/c2ccc(N3CCOCC3)cc2)c1O is reported as 78.4 µM (PBS; 24 h, pH 7.4, 21 °C, 2.0% DMSO).
With CCOc1cc(-c2c(C)[nH]c3cc(OC)c(Cl)cc3c2=O)ccc1F the kinetic solubility was less than 2 µM (pH 7.4).
O=C(Nc1cccc(Cl)c1)c1cc([N+](=O)[O-])c(F)cc1F gave a kinetic solubility of less than 0.3 µM (phosphate buffer; pH 7.4).
The kinetic solubility of Oc1cccc(-c2nc(N3CCC(c4ccccn4)C3)c3ccccc3n2)c1 (centres unmarked) is reported as 1 µg/mL (Japanese Pharmacopoeia disintegration test solution 2; pH 6.8).
With O=C(Nc1cccc(-c2nc3ccccc3o2)c1)c1cc([N+](=O)[O-])c(F)cc1F the kinetic solubility was less than 1.6 µM (phosphate buffer; pH 7.4).
For CC(C)n1c(/C=C/C(O)CC(O)CC(=O)O)c(-c2ccc(F)cc2)c2ccccc21 (centres unmarked), the kinetic solubility was no less than 100 µM (aqueous buffer; 90 min, pH 7.4, 25 °C, 0.1% DMSO).
For Cc1ccc(-c2nc3ccccc3s2)cc1NC(=O)c1ccc(N2CCNCC2)c([N+](=O)[O-])c1, the kinetic solubility was less than 1.6 µM (phosphate buffer; pH 7.4).
The kinetic solubility of CS(=O)(=O)c1ccc(C(=O)N2CCCCC2)cc1 is reported as 308 µM (PBS; 2 h, pH 7.4, 25 °C, 2% DMSO).
COc1cc2[nH]c(C)c(-c3ccc(OC(C)C)cc3)c(=O)c2cc1Cl gave a kinetic solubility of less than 2 µM (pH 7.4).
For CC/C=C\C/C=C\C/C=C\C/C=C\C/C=C\C/C=C\CCC(=O)O.Cc1cc(/C=C/C#N)cc(C)c1Nc1ccnc(Nc2ccc(C#N)cc2)n1, the kinetic solubility was roughly 50000 µg/mL (Capmul MCM C8).
Clc1ccc2nc(-c3ccccn3)c(Nc3ccc4c(c3)OCCO4)n2c1 gave a kinetic solubility of 75.8 µg/mL (shake flask HPLC-UV; sodium phosphate buffer; 24 h, pH 2.0, 2% DMSO).
With COc1cc2[nH]c(C)c(-c3c(C)cc(C)cc3C)c(=O)c2cc1Cl the kinetic solubility was 2 to 6 µM (pH 7.4).
With CCN(CC)CCNC(=O)c1cc(S(C)(=O)=O)cnc1OC the kinetic solubility was 393 µM (PBS; 2 h, pH 7.4, 25 °C, 2% DMSO).
With Cc1cccc(N2CCN(c3nc(-c4ccccn4)nc4ccccc34)CC2)n1 the kinetic solubility was 31 µg/mL (Japanese Pharmacopoeia disintegration test solution 2; pH 6.8).
The kinetic solubility of Clc1ccc(COc2cncc(-c3cnn(C4CCNCC4)c3)c2)c(Cl)c1 is reported as 41 µM (phosphate buffer; pH 7.4, last soluble concentration).
With COc1cc2[nH]c(C)c(-c3ccc4c(c3)OCCO4)c(=O)c2cc1Cl the kinetic solubility was less than 2 µM (pH 7.4).
With COC(=O)c1cn(C)c2ccc(-c3ccccc3)cc12 the kinetic solubility was 90.5 ± 1.5 µM (aqueous buffer; 90 min, pH 7.4, 25 °C, 0.1% DMSO).
The kinetic solubility of COc1cc2[nH]c(C)c(-c3ccc(COc4ccccc4)cc3)c(=O)c2cc1Cl is reported as 2 to 6 µM (pH 7.4).
With O=C1/C(=C/C=C/c2ccco2)SC(=S)N1c1ccc(O)cc1 the kinetic solubility was 112 µM (PBS; 24 h, pH 7.4, 21 °C, 2.0% DMSO).
With NC(=O)C1CCN(c2nc(-c3ccccn3)nc3ccccc23)C1 (centres unmarked) the kinetic solubility was 86 µg/mL (Japanese Pharmacopoeia disintegration test solution 2; pH 6.8).
The kinetic solubility of COc1cnc(NS(=O)(=O)c2ccc(N)cc2)nc1 is reported as 361 µM (PBS; 2 h, pH 7.4, 25 °C, 2% DMSO).
O=C(Nc1ccc(Cl)c(Cl)c1)c1cc([N+](=O)[O-])c(F)cc1Cl has a kinetic solubility of less than 1.6 µM (phosphate buffer; pH 7.4).
For Cc1ccc(C(=O)O)cc1-c1ccc(/C=C2\SC(=O)N(CC(=O)Nc3ccccc3)C2=O)o1, the kinetic solubility was 7.2 µM (PBS; 24 h, pH 7.4, 21 °C, 2.0% DMSO).
CCc1ccccc1-c1c(C)[nH]c2cc(OC)c(Cl)cc2c1=O gave a kinetic solubility of 2 to 6 µM (pH 7.4).
For Cc1ccn2c(Nc3ccc(F)cc3)c(-c3ccccn3)nc2c1, the kinetic solubility was 0.38 µg/mL (shake flask HPLC-UV; sodium phosphate buffer; 24 h, pH 7.4, 2% DMSO).
The kinetic solubility of CCOC(=O)[C@H](CCSC)NC(=O)c1ccc(C2CC2)c(Cc2ccc(F)cc2)n1 is reported as less than 0.1 µg/mL (aqueous buffer with DMSO).
COc1ccn2c(Nc3ccc(F)cn3)c(-c3ccccn3)nc2c1 gave a kinetic solubility of 76.3 µg/mL (shake flask HPLC-UV; sodium phosphate buffer; 24 h, pH 7.4, 2% DMSO).
O=C(Nc1ccc2c(c1)B(O)OC2)Nc1ccc(F)c(C(F)(F)F)c1 gave a kinetic solubility of less than 1.6 µg/mL (nephelometry; aqueous buffer).
With O=C(O)CCc1nc(-c2ccccc2)c(-c2ccccc2)o1 the kinetic solubility was no less than 100 µM (aqueous buffer; 90 min, pH 7.4, 25 °C, 0.1% DMSO).
Cc1cc(Cl)c(Cl)cc1NC(=O)c1cc([N+](=O)[O-])c(F)cc1F gave a kinetic solubility of less than 0.3 µM (phosphate buffer; pH 7.4).
For CCCCCCCC(=O)c1c(O)cc(O)cc1CC(=O)OCC, the kinetic solubility was no less than 100 µM (aqueous buffer; 90 min, pH 7.4, 25 °C, 0.1% DMSO).
With CCc1c(C)[nH]c2cc(OC)c(Cl)cc2c1=O the kinetic solubility was 6 to 12 µM (pH 7.4).
Cc1ccc(-c2nc3ccccc3s2)cc1NC(=O)c1cc([N+](=O)[O-])c(N2CCNCC2)cc1Cl has a kinetic solubility of less than 1.6 µM (phosphate buffer; pH 7.4).
NS(=O)(=O)c1nnc(NC(=O)C2CCCC3(CCCCC3)C2)s1 (centres unmarked) gave a kinetic solubility of 88.5 µM (PBS; pH 7.4).
With Fc1ccccc1-c1nc(N2CCC(c3ccccn3)C2)c2ccccc2n1 (centres unmarked) the kinetic solubility was 5 µg/mL (Japanese Pharmacopoeia disintegration test solution 2; pH 6.8).
For NS(=O)(=O)c1nnc(NC(=O)CCC2CC3CCC2C3)s1 (centres unmarked), the kinetic solubility was 60.5 µM (PBS; pH 7.4).
With Cc1ncc(Cl)cc1NCc1ccc(C(=O)N[C@@H](CC2CCCC2)C(=O)NC2CC2)s1 the kinetic solubility was 6.9 µM (PBS with 1% DMSO; 18 h, pH 7.4).
Clc1ccc(C(c2c[nH]c3ccccc23)c2c[nH]c3ccccc23)cc1 gave a kinetic solubility of 15.2 ± 0.5 µM (aqueous buffer; 90 min, pH 7.4, 25 °C, 0.1% DMSO).
NC(=O)c1cccc(-c2nc(N3CCC(c4ccccn4)C3)c3ccccc3n2)c1 (centres unmarked) gave a kinetic solubility of 4 µg/mL (Japanese Pharmacopoeia disintegration test solution 2; pH 6.8).
Cc1ccc(-c2nc3ccccc3s2)cc1NC(=O)c1cc([N+](=O)[O-])c(NC2CCN(C)CC2)cc1Cl gave a kinetic solubility of less than 1.6 µM (phosphate buffer; pH 7.4).
For CCn1cc2c(N3CCC(c4ccccn4)C3)nc(-c3ccccn3)nc2n1 (centres unmarked), the kinetic solubility was 84 µg/mL (Japanese Pharmacopoeia disintegration test solution 2; pH 6.8).
With Cc1[nH]c(C)c(S(=O)(=O)Nc2ccc(C(F)(F)F)c(Cl)c2Cl)c1C(=O)N1CCC(F)(F)C1 the kinetic solubility was 56 µM.
